Results collected from several papers.
Protocols differ between the studies behind these lines. ± gives the spread as reported.
Cell line: HEK293

| SMILES | assay | setting | IC50 |
| --- | --- | --- | --- |
| CCCCCCCCCCOc1c(O)cc(C(=O)O[C@@H]2Cc3c(O)cc(O)cc3O[C@@H]2c2cc(O)c(O)c(O)c2)cc1O | cell growth or viability, CCK-8 | 24 h | > 150 µM |
| O=C(/C=C/C=C/c1ccccc1)c1ccccc1OCc1cc(F)cc(F)c1 | cell growth or viability, MTT | 48 h | 37 µM |
| CC(C)C[C@H](NC(=O)[C@@H](Cc1c[nH]c2ccccc12)NC(=O)[C@H](Cc1ccc(O)cc1)NC(=O)[C@H](CO)NC(=O)[C@H](Cc1c[nH]c2ccccc12)NC(=O)[C@H](Cc1c[nH]cn1)NC(=O)[C@@H]1CCC(=O)N1)C(=O)N[C@@H](CCCNC(=N)N)C(=O)N1CCC[C@H]1C(=O)NCC(N)=O | cell growth or viability, SRB | – | 0.0004 µM |
| CN1CCCNC(=O)CCC(=O)NCCCN(C)CCCNc2cccc3c2C(=O)c2cccc(c2C3=O)NCCC1 | cell growth or viability, CCK-8 | 48 h | > 20 µM |
| Cc1cccc2c1NC(=O)C21C2=C(COC2=O)NC2=C1C(=O)c1ccccc1C2=O (stereo not drawn) | cell growth or viability, MTT | 72 h | 10 µM |
| O=C1NCC(Cc2ccccc2)N(CC2CCCN2CC(CC2CCCCC2)N2CC(Cc3ccc(O)cc3)N(CCc3ccccc3)C(=O)C2=O)C1=O (stereo not drawn) | cell growth or viability | 72 h | > 100 µM |
| CC(=NNC(=S)NN=C(C(=NO)c1ccccc1)c1ccccc1)c1ccccc1 | cell growth or viability, MTT | 48 h | 71.7 µM |
| CC(C)Cc1ccc(C(C)C(=O)[O][Pt]([NH2])([NH2])([Cl])([Cl])[O]C(=O)C(Cl)Cl)cc1 (stereo not drawn) | cell growth or viability, MTT | 72 h | 0.07 µM |
| O=C1c2ccc3c4ccc5c6c(ccc(c7ccc(c2c37)C(=O)N1CCN1CCCCC1)c64)C(=O)N(CCN1CCCCC1)C5=O | cell growth or viability, SRB | 72 h | 278 µM |
| CN1CCCNC(=O)c2cccc(c2)C(=O)NCCCN(C)CCCNc2cccc3c2C(=O)c2cccc(c2C3=O)NCCC1 | cell growth or viability, CCK-8 | 48 h | 1.4 µM |
| COC(=O)[C@H](C(C)C)N(C)C(=O)[C@@H]1CCCN1C(=O)[C@H](C)N(C)C(=O)OC(C)(C)C | cell growth or viability, SRB | – | 1210 µM |
| CCN(CC)CCN1C(=O)c2ccc3c4cccc5cccc(c6ccc(c2c36)C1=O)c54 | cell growth or viability, SRB | 72 h | 191 µM |
| [Cl][Cu-][c]1n(-c2c(C(c3ccccc3)c3ccccc3)cc(C(c3ccccc3)c3ccccc3)cc2C(c2ccccc2)c2ccccc2)c2c([n+]1-c1c(C(c3ccccc3)c3ccccc3)cc(C(c3ccccc3)c3ccccc3)cc1C(c1ccccc1)c1ccccc1)-c1cccc3cccc-2c13 | cell growth or viability, MTT | 72 h | > 50 µM |
| CC(=O)[C@@H]1CCCN1C(=O)[C@@H]1CCCN1C(=O)[C@H](Cc1ccccc1)N(C)C(=O)OC(C)(C)C | cell growth or viability, SRB | – | 160 µM |
| Cc1cc(C)c(-n2c3c([n+](-c4c(C)cc(C)cc4C)[c]2[Au-][Cl])-c2cccc4cccc-3c24)c(C)c1 | cell growth or viability, MTT | 72 h | 36 µM |
| CC(=O)Oc1ccccc1C(=O)[O][Pt]([NH2])([NH2])([Cl])([Cl])[O]C(=O)C(Cl)Cl | cell growth or viability, MTT | 72 h | 0.09 µM |
| CSc1ccc(-c2noc(-c3cccs3)c2C(F)(F)F)cc1 | cell growth or viability, MTT | 48 h | 103 µM |
| CCn1cc(/C=C/c2ccc3ccccc3[n+]2CC)c2ccccc21 | cell growth or viability, MTT | 24 h | 11.6 µM |

| SMILES | assay | setting | IC50 |
| --- | --- | --- | --- |
| COC(=O)C1=CO[C@@H](C)[C@@H]2Cn3ccc4c5ccccc5nc-4c3C[C@H]12 | cytotoxicity | – | > 200 µM |
| Cc1nc(-c2ccc(Cl)cc2)nc(N2CCC(C)(N)CC2)c1Cc1ccccc1 | cell growth or viability, WST-1 | 72 h | 4.5 µM |
| COc1ccc(CN2C(=O)C(=O)c3cc(NC(C)=O)ccc32)cc1 | cytotoxicity, MTT | 48 h | 17.6 ± 5.07 µM |
| COC(=O)[C@@H]1CCCN1C(=O)[C@H](C)N(C)C(=O)OC(C)(C)C | cell growth or viability, SRB | – | 2450 µM |
| C=C[CH2][Pd-]([Cl])[Cl].CC(C)c1cccc(C(C)C)c1-n1c[n+](-c2c(C(C)C)cccc2C(C)C)c2c1-c1cccc3cccc-2c13 | cell growth or viability, MTT | 72 h | 1.7 µM |
| O=C1c2ccc3c4cccc5c(N6CCNCC6)ccc(c6ccc(c2c36)C(=O)N1CCN1CCCCC1)c54 | cell growth or viability, SRB | 72 h | 258 µM |
| NC(=O)CNC(=O)[C@@H]1CCCN1C(=O)[C@H](Cc1ccc(O)cc1)NC(=O)[C@H](Cc1c[nH]c2ccccc12)NC(=O)[C@@H](Cc1c[nH]c2ccccc12)NC(=O)[C@H](Cc1c[nH]cn1)NC(=O)[C@H](CO)NC(=O)[C@H](Cc1c[nH]c2ccccc12)NC(=O)[C@H](Cc1c[nH]cn1)NC(=O)[C@@H]1CCC(=O)N1 | cell growth or viability, SRB | – | 0.0005 µM |
| CCCCCCCCCCCCOc1c(O)cc(C(=O)O[C@@H]2Cc3c(O)cc(O)cc3O[C@@H]2c2cc(O)c(O)c(O)c2)cc1O | cell growth or viability, CCK-8 | 24 h | > 150 µM |
| CCCCCCCCCCCCCCCC(=O)N[C@@H](CCCCN)C(=O)N[C@@H](CCCCN)C(=O)N[C@@H](CCCCN)C(=O)N[C@@H](CCCCN)C(=O)N[C@@H](CCCCN)C(N)=O | cell growth or viability, resazurin | – | > 32 µg/mL |
| CCCCCCCCCCCCCCOc1c(O)cc(C(=O)O[C@@H]2Cc3c(O)cc(O)cc3O[C@@H]2c2cc(O)c(O)c(O)c2)cc1O | cell growth or viability, CCK-8 | 24 h | > 150 µM |
| CC(C)c1cccc(C(C)C)c1-n1c2c([n+](-c3c(C(C)C)cccc3C(C)C)[c]1[Cu-][Cl])-c1cccc3cccc-2c13 | cell growth or viability, MTT | 72 h | 3.2 µM |
| CCCCCCOc1c(O)cc(C(=O)O[C@@H]2Cc3c(O)cc(O)cc3O[C@@H]2c2cc(O)c(O)c(O)c2)cc1O | cell growth or viability, CCK-8 | 24 h | > 150 µM |
| CCCC(CCC)C(=O)[O][Pt]([NH2])([NH2])([Cl])([Cl])[O]C(=O)C(Cl)Cl | cell growth or viability, MTT | 72 h | 1.98 µM |
| Fc1ccc(-c2noc(-c3cccs3)c2C(F)(F)F)cc1 | cell growth or viability, MTT | 48 h | 92.1 µM |
| CCCCCCCCCCCCCCCCCC(=O)N[C@@H](CCCN)C(=O)N[C@@H](CCCN)C(=O)N[C@@H](CCCN)C(=O)N[C@@H](CCCN)C(=O)N[C@@H](CCCN)C(N)=O | cell growth or viability, resazurin | – | 20.3 µg/mL |
| COC(=O)[C@@H](NC(=O)[C@@H](NC(=O)OC(C)(C)C)C(C)C)C(C)C | cell growth or viability, SRB | – | 238 µM |
| FC(F)(F)Sc1ccc(-c2noc(-c3cccs3)c2C(F)(F)F)cc1 | cell growth or viability, MTT | 48 h | 118 µM |
| CCCCCCCCCCCCCC(=O)N[C@@H](CCCCN)C(=O)N[C@@H](CCCCN)C(=O)N[C@@H](CCCCN)C(=O)N[C@@H](CCCCN)C(=O)N[C@@H](CCCCN)C(N)=O | cell growth or viability, resazurin | – | > 32 µg/mL |
